Assay results of several laboratories.
Each numbered part is a random draw from the data of one study; scales do not carry over between parts. Changes are numbered by the printed parent chain.

Study 1
Target: RING finger protein unkempt homolog, zinc fingers 1-6, GST-SBP tag (UNK, Homo sapiens, UniProt Q9C0B0, residues 30-357)
Sequence of UniProt Q9C0B0 (30-357, looked up): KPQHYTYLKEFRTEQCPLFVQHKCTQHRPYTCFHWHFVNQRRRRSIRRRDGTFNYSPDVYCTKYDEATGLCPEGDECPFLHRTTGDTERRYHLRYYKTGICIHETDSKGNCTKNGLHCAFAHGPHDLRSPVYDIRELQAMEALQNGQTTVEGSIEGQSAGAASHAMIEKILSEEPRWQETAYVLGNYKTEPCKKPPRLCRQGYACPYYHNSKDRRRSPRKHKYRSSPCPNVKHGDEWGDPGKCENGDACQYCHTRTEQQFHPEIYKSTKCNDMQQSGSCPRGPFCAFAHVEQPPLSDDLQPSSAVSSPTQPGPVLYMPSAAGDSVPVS
Technique: RNA Bind-n-Seq
Form: RNA
Medium: in vitro
Tested at: not given
Setting: RNA with constant flanks, human and mouse sites, ends assumed
Reference: input RNA pool
Direction: higher = stronger binding
| Oligonucleotide | bound/input enrichment [ratio] |
| --- | --- |
| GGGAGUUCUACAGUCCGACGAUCCGGCAUUCUACACCUUUACAUUUGGCAGCUGGUUAUAAUAACUUGGAAGUUGCUGAGUAUUUAUUGCAACAUGGAGCUGAUGUGAAUGCCCAGGACAAAGGAGGACUCAUUCCUUUACAUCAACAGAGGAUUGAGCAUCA | 0.152 |
| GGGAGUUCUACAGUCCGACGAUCUUGUGUAAAUGCGUUCGUGUUCUCAGUCUCCCUACCGACAGUGACAAGUCAAAGCCGCAGCUUUCCUCCUUAACUGCCACCUCUGUCCCGUUCCAUUUUGGAUCUUCAGCUCAGUUCUCACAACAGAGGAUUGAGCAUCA | 0.209 |
| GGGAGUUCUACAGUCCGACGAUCGCAAUAAUAUGUCAAUAAGUUACAUAAAGAUGCCCAUGUGACAGCACCCCCAAUCAGUGGCUUAGAGGGCUUAAAAAUGCUGUAUUUAUUUUUAAAACUUUGGCUUAAAGGCAUAAGAAGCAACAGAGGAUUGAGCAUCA | 0.326 |
| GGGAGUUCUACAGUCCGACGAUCAUUUUAUUGGUGCCUUCUUUCAUCAUGCCUUUUAAAUCAAAGGGAUAUUGGUACAUGCUUUUAGAAGAAUUGUGUCAGUAUUACCGAAUUUUUGUUCCUAUACCAGUUUGGUUUCGGUACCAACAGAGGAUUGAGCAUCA | 0.398 |
| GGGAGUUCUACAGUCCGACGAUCAAAAAGAAAACAUUCCAGAUGCAUGAUCCAGCUGUGUGUUUUCAAUCCUUGGGAGGGUGCCAUCCACAUUUUAACAGUACCUGUGCCUGAGAAUUUAAUUUUUAAAAGACUUUGAUGUGUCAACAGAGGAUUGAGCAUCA | 0.546 |
| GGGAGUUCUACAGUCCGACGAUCUGUUGUAAAUCAGACUCCAGCAAUUUUUGUUGUAUGAUUUUGGUUUUUGUAAAGUGUAAUUGUCCUUGUACAAAGUGCUCAUAUUUAAUUAUGAACUGCUUUAAAAUCACUAUCAGUGAACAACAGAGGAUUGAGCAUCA | 0.102 |
| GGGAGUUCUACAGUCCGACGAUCGUCUGCAUUUAUCUUUCUUCCAAGUUUUUCUAAUUCUAAUGCUAUUUGUUAUAAUUUAGGUUUGGGAUAAAAAUAUGCUUUUGGAAGAUUUAAAAAGAAAAUUAAAACAGCUCUUCCUGACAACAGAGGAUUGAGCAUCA | 1.14 |
| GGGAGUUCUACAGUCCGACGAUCAGUGAAUGAGGUGGAGCUUCUGGUGAUGAAGGCCCUUUCGGUGGGGCUGGUGAAAGGCAGUAUAGACGAGGUGGACAAACGAGUCCACAUGACCUGGGUGCAGCCCCGAGUGUUGGAUUUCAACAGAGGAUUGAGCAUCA | 0.21 |

Study 2
Target: Sal-like protein 4, full length isoform A (SALL4, Homo sapiens, UniProt Q9UJQ4, residues 1-1053)
Sequence of UniProt Q9UJQ4 (whole entry, looked up): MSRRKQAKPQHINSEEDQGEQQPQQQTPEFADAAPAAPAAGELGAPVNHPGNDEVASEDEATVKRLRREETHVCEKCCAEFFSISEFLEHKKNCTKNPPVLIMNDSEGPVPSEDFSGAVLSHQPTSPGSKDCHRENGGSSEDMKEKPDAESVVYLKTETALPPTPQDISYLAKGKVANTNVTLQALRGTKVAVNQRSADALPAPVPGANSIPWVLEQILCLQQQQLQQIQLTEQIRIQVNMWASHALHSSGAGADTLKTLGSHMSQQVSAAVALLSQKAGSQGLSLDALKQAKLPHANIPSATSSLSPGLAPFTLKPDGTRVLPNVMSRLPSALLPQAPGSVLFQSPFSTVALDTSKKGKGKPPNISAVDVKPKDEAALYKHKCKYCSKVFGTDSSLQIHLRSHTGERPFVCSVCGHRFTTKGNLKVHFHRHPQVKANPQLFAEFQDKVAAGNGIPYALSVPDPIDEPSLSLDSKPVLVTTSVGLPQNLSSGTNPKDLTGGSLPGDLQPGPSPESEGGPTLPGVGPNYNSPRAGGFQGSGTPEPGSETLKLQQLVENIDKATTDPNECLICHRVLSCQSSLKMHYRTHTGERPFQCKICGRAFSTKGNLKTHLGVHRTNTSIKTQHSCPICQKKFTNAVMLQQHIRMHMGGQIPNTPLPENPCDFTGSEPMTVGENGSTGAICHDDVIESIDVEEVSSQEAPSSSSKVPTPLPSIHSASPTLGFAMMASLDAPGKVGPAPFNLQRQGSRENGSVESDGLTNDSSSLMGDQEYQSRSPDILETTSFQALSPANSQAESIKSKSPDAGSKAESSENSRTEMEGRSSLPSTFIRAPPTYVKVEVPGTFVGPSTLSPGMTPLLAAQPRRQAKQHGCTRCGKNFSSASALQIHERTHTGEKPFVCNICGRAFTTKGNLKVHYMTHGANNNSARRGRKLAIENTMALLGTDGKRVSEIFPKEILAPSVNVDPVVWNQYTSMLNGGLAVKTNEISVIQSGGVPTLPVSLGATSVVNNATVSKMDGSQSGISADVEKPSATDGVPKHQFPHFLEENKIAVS
Technique: universal PBM
Form: double-stranded DNA, one strand shown
Medium: in vitro
Tested at: 600 nM
Setting: 8-mer, flanks averaged, mean of replicates
Direction: higher = stronger binding
| Oligonucleotide | E-score |
| --- | --- |
| TAGGGCAA | -0.0469 |
| CTGTCCTC | -0.215 |
| AGATCTGC | 0.0122 |
| TCTCCCAA | -0.016 |
| CTAAACAA | 0.132 |
| ATGTAAAC | 0.248 |
| ATATGCCA | 0.126 |
| CACCCAGA | -0.12 |
| CGGTCGAA | -0.259 |
| CGCAAGAG | -0.114 |
| CGTCATCA | 0.114 |
| TGCATGAA | 0.182 |
| CATAAATC | 0.39 |
| AGACCTGG | -0.271 |
| TAGTCAGA | 0.0233 |
| CCAGCCTC | -0.253 |
| AAGTGCGC | -0.195 |
| ACAAGGCA | -0.0181 |
| ACGGCAGC | -0.199 |

Study 3
Target: Prothrombin, mature alpha-thrombin (F2, Homo sapiens, UniProt P00734)
Technique: aptamer microarray, sandwich
Form: DNA with 2'F-ANA
Medium: in vitro
Tested at: 200 nM
Setting: whole 15-mer aptamer, many near background
Added: Cy3 exosite-II aptamer, 400 nM
Direction: higher = stronger binding
Oligonucleotide: GGTTGGTGTGGTTGG
| Modification | mean fluorescence intensity [a.u.] |
| --- | --- |
| 2'F-ANA at 2 5 6 8 9 10 11 14 15 | 47.8 |
| 2'F-ANA at 2 3 7 11 14 | 465 |
| 2'F-ANA at 1 3 7 8 10 11 15 | 81.3 |
| 2'F-ANA at 2 3 7 8 10 11 12 13 14 | 287 |
| 2'F-ANA at 2 3 4 6 7 9 10 13 15 | 169 |
| 2'F-ANA at 11 | 599 |
| 2'F-ANA at 1 2 5 7 9 11 13 14 | 45.9 |
| 2'F-ANA at 4 5 6 7 9 10 12 15 | 54.5 |
| 2'F-ANA at 1 4 9 10 11 12 14 | 44 |
| 2'F-ANA at 1 2 5 6 7 8 9 10 11 13 15 | 50.8 |
| 2'F-ANA at 1 3 5 8 9 10 12 | 65.6 |
| 2'F-ANA at 1 2 4 5 13 14 | 68.5 |
| 2'F-ANA at 3 5 6 8 11 12 13 14 | 57.2 |
| 2'F-ANA at 1 3 4 5 7 8 11 12 13 15 | 81.3 |
| 2'F-ANA at 3 4 5 6 7 8 9 10 11 12 15 | 66.2 |
| 2'F-ANA at 1 3 6 7 8 9 | 323 |
| 2'F-ANA at 1 3 7 10 12 15 | 121 |
| 2'F-ANA at 4 6 7 8 11 12 13 15 | 365 |
| 2'F-ANA at 1 2 3 6 8 | 291 |
| 2'F-ANA at 2 6 9 11 | 317 |
| 2'F-ANA at 2 4 5 7 9 10 15 | 47.4 |
| 2'F-ANA at 3 4 7 10 14 | 265 |
| 2'F-ANA at 1 5 6 7 8 9 10 13 15 | 47.6 |
| 2'F-ANA at 1 2 3 5 8 9 13 | 53.6 |
| 2'F-ANA at 1 5 6 8 9 10 12 | 52.1 |

Study 4
Target: CCNF, cyclin fold, Cln2 fusion (human)
Technique: yeast growth competition, sequencing
Medium: yeast
Setting: strong parent motif
Reference: not given
Direction: higher = stronger binding
Starting sequence: PKN2 docking peptide (human); VSAVRKLDFSDTM; partner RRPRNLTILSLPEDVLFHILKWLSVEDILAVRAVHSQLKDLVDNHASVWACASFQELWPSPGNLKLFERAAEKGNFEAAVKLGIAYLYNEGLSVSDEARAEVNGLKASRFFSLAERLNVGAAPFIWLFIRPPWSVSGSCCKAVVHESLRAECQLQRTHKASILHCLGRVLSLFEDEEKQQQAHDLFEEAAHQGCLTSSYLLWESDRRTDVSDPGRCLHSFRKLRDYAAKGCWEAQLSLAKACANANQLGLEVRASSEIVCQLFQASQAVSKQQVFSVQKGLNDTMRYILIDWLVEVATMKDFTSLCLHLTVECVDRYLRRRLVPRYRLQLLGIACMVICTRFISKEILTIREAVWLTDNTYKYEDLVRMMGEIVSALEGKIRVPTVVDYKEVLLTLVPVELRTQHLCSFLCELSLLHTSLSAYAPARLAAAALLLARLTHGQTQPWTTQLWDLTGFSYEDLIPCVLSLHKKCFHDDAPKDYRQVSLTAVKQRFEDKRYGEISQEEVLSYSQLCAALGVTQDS
| Variant | normalised enrichment score |
| --- | --- |
| F9H | 0.285 |
| F9V | 1.5 |
| S10I | 6.44 |
| S2N | 7.16 |
| V4D | 2.29 |
| R5K | 5.11 |
| D8R | 8.28 |
| D8G | 6.19 |
| S2F | 6.9 |
| A3I | 6.94 |
| L7H | -0.0298 |
| S10F | 7.07 |
| K6P | 2.25 |
| F9A | -0.0688 |
| S2D | 6.42 |
| A3Y | 6.12 |
| D11T | 7.36 |
| D11V | 7.48 |
| S10A | 7.25 |
| V4M | 6.97 |
| S2K | 7.54 |
| S10N | 7.13 |
| T12I | 7.28 |
| D8S | 6.62 |
| S2E | 6.11 |

For quick reference, copied from above (study 4):
| Variant | normalised enrichment score |
| --- | --- |
| T12I | 7.28 |
| K6P | 2.25 |
| S2E | 6.11 |
| D11V | 7.48 |
| R5K | 5.11 |
| S2K | 7.54 |
| V4D | 2.29 |
| D8R | 8.28 |
| D11T | 7.36 |
| D8S | 6.62 |
| F9H | 0.285 |
| S2F | 6.9 |
